{"data": "Experimental data of several laboratories", "note": "Every numbered part comes from another study and shows a few of its results, in no order. Values joined by “and” are separate records of one study, mostly repeats; a detail may differ.", "UniProt Q02156, sequence (whole entry, looked up)": "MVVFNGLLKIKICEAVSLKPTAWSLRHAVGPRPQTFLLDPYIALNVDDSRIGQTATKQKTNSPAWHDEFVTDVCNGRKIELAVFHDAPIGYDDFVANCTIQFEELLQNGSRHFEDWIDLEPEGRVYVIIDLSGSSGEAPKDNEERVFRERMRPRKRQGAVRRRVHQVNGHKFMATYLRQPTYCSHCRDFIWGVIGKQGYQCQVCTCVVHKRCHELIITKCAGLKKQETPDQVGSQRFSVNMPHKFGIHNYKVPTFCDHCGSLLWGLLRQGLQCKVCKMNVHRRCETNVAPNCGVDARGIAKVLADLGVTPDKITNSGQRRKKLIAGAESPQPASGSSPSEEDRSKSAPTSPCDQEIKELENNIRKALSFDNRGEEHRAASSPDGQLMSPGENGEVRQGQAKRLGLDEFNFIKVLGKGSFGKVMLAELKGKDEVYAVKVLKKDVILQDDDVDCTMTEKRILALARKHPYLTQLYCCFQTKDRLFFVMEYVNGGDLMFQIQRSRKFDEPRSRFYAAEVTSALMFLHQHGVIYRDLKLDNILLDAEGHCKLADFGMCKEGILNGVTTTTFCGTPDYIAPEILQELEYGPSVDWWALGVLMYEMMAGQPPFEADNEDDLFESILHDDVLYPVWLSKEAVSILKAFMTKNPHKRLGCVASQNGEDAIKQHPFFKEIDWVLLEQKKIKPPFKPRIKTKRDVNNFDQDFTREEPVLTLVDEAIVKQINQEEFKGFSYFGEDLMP", "UniProt P36894, sequence (whole entry, looked up)": "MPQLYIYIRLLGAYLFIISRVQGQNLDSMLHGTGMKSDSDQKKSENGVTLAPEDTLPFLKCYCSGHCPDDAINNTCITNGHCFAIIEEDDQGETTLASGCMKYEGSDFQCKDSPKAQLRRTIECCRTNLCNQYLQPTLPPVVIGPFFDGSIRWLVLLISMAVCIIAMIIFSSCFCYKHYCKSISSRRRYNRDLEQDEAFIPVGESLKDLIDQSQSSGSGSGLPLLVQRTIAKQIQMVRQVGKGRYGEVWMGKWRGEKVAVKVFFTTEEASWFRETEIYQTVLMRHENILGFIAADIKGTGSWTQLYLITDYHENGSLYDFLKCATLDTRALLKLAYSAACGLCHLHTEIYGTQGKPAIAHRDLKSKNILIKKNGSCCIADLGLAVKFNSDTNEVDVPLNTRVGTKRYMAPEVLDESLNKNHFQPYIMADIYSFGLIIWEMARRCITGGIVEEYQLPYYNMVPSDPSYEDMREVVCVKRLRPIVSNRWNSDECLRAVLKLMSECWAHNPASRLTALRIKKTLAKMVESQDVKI", "UniProt Q9P1W9, sequence (whole entry, looked up)": "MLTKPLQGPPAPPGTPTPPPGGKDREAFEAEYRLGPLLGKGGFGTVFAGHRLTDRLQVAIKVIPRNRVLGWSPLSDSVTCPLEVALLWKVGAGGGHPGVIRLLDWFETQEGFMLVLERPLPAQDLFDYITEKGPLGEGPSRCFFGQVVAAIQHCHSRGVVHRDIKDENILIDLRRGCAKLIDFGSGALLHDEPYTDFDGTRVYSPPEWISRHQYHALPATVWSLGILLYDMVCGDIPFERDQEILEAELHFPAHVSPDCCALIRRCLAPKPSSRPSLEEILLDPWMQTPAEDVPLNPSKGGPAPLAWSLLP", "UniProt O00329, sequence (whole entry, looked up)": "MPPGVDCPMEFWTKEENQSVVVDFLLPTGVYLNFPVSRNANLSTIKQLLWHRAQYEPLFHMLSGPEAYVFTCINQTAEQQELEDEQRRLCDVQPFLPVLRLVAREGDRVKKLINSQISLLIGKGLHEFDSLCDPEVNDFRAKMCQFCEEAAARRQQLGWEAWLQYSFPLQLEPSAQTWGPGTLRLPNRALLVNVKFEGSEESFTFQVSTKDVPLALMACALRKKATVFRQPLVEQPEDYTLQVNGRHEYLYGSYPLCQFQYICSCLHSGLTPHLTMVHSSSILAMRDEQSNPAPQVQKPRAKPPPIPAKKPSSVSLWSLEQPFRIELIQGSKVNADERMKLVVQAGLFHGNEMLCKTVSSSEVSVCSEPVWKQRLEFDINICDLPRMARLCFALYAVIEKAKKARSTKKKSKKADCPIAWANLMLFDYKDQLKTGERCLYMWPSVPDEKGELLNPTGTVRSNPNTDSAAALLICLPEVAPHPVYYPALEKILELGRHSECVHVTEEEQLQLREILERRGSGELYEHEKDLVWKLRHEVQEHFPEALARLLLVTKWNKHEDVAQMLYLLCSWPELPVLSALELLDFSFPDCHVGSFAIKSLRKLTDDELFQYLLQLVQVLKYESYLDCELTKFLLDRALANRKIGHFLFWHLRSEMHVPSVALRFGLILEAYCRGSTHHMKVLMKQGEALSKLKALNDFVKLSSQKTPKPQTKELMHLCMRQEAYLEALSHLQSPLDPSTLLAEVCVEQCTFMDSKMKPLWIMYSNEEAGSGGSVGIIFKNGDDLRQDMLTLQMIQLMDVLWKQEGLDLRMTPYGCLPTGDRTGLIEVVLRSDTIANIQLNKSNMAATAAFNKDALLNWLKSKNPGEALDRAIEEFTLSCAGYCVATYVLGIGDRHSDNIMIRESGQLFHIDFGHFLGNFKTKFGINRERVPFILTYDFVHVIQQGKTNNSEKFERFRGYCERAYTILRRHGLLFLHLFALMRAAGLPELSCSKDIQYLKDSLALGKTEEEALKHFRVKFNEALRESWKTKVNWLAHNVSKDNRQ", "UniProt Q8IWQ3, sequence (whole entry, looked up)": "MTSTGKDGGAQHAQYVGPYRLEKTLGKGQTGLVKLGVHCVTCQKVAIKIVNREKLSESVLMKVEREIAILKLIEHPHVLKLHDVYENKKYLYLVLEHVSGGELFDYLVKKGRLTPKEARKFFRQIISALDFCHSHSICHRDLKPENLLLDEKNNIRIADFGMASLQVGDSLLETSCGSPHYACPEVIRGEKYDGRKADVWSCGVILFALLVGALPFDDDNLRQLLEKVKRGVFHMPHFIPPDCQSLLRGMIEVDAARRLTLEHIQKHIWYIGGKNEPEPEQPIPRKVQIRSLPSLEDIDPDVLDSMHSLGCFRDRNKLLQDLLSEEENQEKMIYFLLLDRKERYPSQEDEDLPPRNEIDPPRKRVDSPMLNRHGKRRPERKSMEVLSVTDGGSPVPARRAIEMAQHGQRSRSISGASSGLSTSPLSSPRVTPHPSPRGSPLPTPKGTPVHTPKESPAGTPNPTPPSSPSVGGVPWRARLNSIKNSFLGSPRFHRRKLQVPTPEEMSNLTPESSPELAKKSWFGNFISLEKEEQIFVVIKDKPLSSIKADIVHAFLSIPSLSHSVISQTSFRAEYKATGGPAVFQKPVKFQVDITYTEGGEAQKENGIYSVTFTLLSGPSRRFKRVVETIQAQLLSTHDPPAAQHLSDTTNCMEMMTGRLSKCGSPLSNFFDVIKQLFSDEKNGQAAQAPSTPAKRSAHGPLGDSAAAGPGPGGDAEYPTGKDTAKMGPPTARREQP", "UniProt Q9UPE1, sequence (whole entry, looked up)": "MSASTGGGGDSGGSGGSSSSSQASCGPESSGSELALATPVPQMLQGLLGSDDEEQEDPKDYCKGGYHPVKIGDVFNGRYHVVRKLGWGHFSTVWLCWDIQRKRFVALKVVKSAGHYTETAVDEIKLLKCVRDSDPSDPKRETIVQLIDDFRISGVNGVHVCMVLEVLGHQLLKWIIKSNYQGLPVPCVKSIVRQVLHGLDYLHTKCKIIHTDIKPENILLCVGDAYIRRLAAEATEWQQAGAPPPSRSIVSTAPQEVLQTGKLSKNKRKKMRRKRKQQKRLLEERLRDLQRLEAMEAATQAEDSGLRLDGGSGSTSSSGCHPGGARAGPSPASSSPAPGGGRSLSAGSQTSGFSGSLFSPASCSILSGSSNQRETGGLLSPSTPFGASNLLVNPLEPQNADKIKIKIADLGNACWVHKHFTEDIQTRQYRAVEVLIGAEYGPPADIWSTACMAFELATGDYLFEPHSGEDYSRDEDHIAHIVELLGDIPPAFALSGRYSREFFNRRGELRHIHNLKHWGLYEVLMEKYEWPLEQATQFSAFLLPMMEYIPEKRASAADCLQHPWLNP", "UniProt P25098, sequence (whole entry, looked up)": "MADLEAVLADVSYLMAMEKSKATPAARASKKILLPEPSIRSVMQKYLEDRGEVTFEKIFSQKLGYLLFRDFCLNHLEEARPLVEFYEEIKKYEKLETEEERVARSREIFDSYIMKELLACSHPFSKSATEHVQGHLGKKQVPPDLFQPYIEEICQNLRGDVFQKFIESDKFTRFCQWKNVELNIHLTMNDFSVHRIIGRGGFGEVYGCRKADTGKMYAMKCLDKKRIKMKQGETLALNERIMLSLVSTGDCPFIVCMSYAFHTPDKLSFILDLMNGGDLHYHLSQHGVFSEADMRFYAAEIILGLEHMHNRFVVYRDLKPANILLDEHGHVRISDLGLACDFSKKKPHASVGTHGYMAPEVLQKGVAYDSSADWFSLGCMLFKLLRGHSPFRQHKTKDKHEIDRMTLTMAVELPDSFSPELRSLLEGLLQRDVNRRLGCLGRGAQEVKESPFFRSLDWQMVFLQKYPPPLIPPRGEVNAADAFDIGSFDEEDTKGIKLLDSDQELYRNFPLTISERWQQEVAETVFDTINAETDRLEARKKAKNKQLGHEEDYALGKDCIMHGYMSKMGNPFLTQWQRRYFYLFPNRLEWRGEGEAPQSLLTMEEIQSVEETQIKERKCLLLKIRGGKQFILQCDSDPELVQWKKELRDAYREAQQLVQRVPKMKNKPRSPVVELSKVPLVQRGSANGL", "UniProt Q9UQB9, sequence (whole entry, looked up)": "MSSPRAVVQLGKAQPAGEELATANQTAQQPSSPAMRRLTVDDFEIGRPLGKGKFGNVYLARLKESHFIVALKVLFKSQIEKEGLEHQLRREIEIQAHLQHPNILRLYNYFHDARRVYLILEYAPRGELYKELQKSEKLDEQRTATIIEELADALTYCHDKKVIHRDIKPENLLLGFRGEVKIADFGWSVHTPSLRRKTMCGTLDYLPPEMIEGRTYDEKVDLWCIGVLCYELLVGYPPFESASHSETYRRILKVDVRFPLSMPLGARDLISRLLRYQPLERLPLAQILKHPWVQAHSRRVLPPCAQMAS"}
{"data": "Set 1", "Structure (SMILES)": "CCCOc1ccc([C@@H]2[C@@H](C(=O)O)[C@H](c3ccc4c(c3)OCO4)CN2CC(=O)Nc2c(CC)cccc2CC)cc1", "technique": "competition with immobilised ligand", "tested at": "1 µM"}
{"target": "cGMP-dependent protein kinase 1 (PRKG1, Homo sapiens, UniProt Q13976)", "observed": "cell-free assay", "remaining binding [%]": 97}
{"target": "Epidermal growth factor receptor (EGFR, Homo sapiens, UniProt P00533, del747-752/P753S)", "observed": "cell-free assay", "remaining binding [%]": 58}
{"target": "Mast/stem cell growth factor receptor Kit (KIT, Homo sapiens, UniProt P10721, D816H)", "observed": "cell-free assay", "remaining binding [%]": 94}
{"target": "Receptor tyrosine-protein kinase erbB-3 (ERBB3, Homo sapiens, UniProt P21860)", "observed": "cell-free assay", "remaining binding [%]": 84}
{"target": "Bone morphogenetic protein receptor type-1A (BMPR1A, Homo sapiens, UniProt P36894)", "observed": "binding", "remaining binding [%]": 89}
{"target": "NT-3 growth factor receptor (NTRK3, Homo sapiens, UniProt Q16288)", "observed": "cell-free assay", "remaining binding [%]": 91}
{"target": "Calcium/calmodulin-dependent protein kinase type IV (CAMK4, Homo sapiens, UniProt Q16566)", "observed": "cell-free assay", "remaining binding [%]": 96}
{"target": "Phosphatidylinositol 4,5-bisphosphate 3-kinase catalytic subunit delta isoform (PIK3CD, Homo sapiens, UniProt O00329)", "observed": "cell-free assay", "remaining binding [%]": 90}
{"target": "Dual specificity mitogen-activated protein kinase kinase 2 (MAP2K2, Homo sapiens, UniProt P36507)", "observed": "cell-free assay", "remaining binding [%]": 89}
{"target": "Serine/threonine-protein kinase B-raf (BRAF, Homo sapiens, UniProt P15056, V600E)", "observed": "cell-free assay", "remaining binding [%]": 98}
{"target": "Serine/threonine-protein kinase WNK3 (WNK3, Homo sapiens, UniProt Q9BYP7)", "observed": "cell-free assay", "remaining binding [%]": 94}
{"target": "Testis-specific serine/threonine-protein kinase 3 (TSSK3, Homo sapiens, UniProt Q96PN8)", "observed": "cell-free assay", "remaining binding [%]": 81}
{"target": "Tyrosine-protein kinase ABL1, non-phosphorylated (ABL1, Homo sapiens, UniProt P00519, F317L)", "observed": "cell-free assay", "remaining binding [%]": 82}
{"target": "Serine/threonine-protein kinase DCLK3 (DCLK3, Homo sapiens, UniProt Q9C098)", "observed": "cell-free assay", "remaining binding [%]": 100}
{"target": "Serine/threonine-protein kinase BRSK2 (BRSK2, Homo sapiens, UniProt Q8IWQ3)", "observed": "cell-free assay", "remaining binding [%]": 100}
{"data": "Set 2", "SMILES": "O=c1cc(N2CCOCC2)oc2c(-c3ccccc3)cccc12", "observed": "enzyme activity", "action": "inhibitor", "tested at": "0.5 µM", "relative to": "control"}
{"target": "NUAK family SNF1-like kinase 1 (NUAK1, Homo sapiens, UniProt O60285)", "remaining activity [%]": 92.5}
{"target": "Serine/threonine-protein kinase pim-2 (PIM2, Homo sapiens, UniProt Q9P1W9)", "remaining activity [%]": 106}
{"target": "SRSF protein kinase 3 (SRPK3, Homo sapiens, UniProt Q9UPE1)", "remaining activity [%]": 95.5}
{"target": "Tyrosine-protein kinase CSK (CSK, Homo sapiens, UniProt P41240)", "remaining activity [%]": 88.1}
{"target": "Aurora kinase C (AURKC, Homo sapiens, UniProt Q9UQB9)", "remaining activity [%]": 97}
{"target": "Ribosomal protein S6 kinase alpha-1 (RPS6KA1, Homo sapiens, UniProt Q15418)", "remaining activity [%]": 97.3}
{"target": "Beta-adrenergic receptor kinase 1 (GRK2, Homo sapiens, UniProt P25098)", "remaining activity [%]": 106}
{"target": "Protein kinase C gamma type (PRKCG, Homo sapiens, UniProt P05129)", "remaining activity [%]": 94.2}
{"target": "Myosin light chain kinase, smooth muscle (MYLK, Homo sapiens, UniProt Q15746)", "remaining activity [%]": 97.8}
{"target": "Protein kinase C epsilon type (PRKCE, Homo sapiens, UniProt Q02156)", "remaining activity [%]": 102}
{"target": "Macrophage colony-stimulating factor 1 receptor (CSF1R, Homo sapiens, UniProt P07333)", "remaining activity [%]": 98.3}
{"data": "Set 3", "cell line": "mouse MPNST tumor cells", "technique": "high-content immunofluorescence imaging", "measured": "nuclear SOX9", "tested at": "10 µM", "time": "12 h", "setting": "mean of 2 replicates", "relative to": "DMSO control", "direction": "higher = more nuclear SOX9"}
{"Compound": "N/C(=N\\C(=O)c1nc(Cl)c(N)nc1N)NCc1ccccc1", "nuclear SOX9 intensity": "101 % of DMSO and 103 % of DMSO"}
{"Compound": "COc1ccc(/C=C/C(=O)Nc2ccccc2C(=O)O)cc1OC", "nuclear SOX9 intensity": "95.2 % of DMSO and 102 % of DMSO"}
{"Compound": "COc1ccc2c(c1)N(C[C@H](C)CN(C)C)c1ccccc1S2", "nuclear SOX9 intensity": "190 % of DMSO"}
{"Compound": "C[C@H](NC[C@H](O)CP(=O)(O)CC1CCCCC1)c1ccc(Cl)c(Cl)c1", "nuclear SOX9 intensity": "96.9 % of DMSO"}
{"Compound": "CCCCCCC(=O)OC1CC(C)(C)NC(C)(C)C1", "nuclear SOX9 intensity": "97.3 % of DMSO"}
{"Compound": "N#Cc1ccc2[nH]cc(CCCCN3CCN(c4ccc5oc(C(N)=O)cc5c4)CC3)c2c1", "nuclear SOX9 intensity": "174 % of DMSO"}
{"Compound": "C[C@@H](Oc1nnc(-c2ccncc2)n1C)c1cc(-c2cccc(Cl)c2)on1", "nuclear SOX9 intensity": "93.1 % of DMSO"}
{"Compound": "O=C(Nc1ccc(C(O)(C(F)(F)F)C(F)(F)F)cc1)c1ccc(C(F)(F)F)cc1", "nuclear SOX9 intensity": "99.6 % of DMSO"}
{"Compound": "O=C(Nc1cccc(Br)c1)c1cccc(S(=O)(=O)N2CCCCCC2)c1", "nuclear SOX9 intensity": "166 % of DMSO"}
{"Compound": "O=C(Nc1cccc2cccnc12)c1ccc(N2C(=O)[C@@H]3[C@H](C2=O)[C@H]2C=C[C@@H]3C2)cc1", "nuclear SOX9 intensity": "103 % of DMSO"}
{"Compound": "COc1ccc(-n2c(C)c([N+](=O)[O-])c3ccc(O)cc32)cc1", "nuclear SOX9 intensity": "126 % of DMSO"}
{"Compound": "COc1cc(C(=S)N2CCOCC2)cc(OC)c1OC", "nuclear SOX9 intensity": "111 % of DMSO"}
{"data": "Set 4", "SMILES": "CC(C)n1cnc(-c2ccc(F)cc2)c1-c1ncc(C(=O)Nc2ccc(N3CCN(C)CC3)cc2)[nH]1", "technique": "phase 2a trial", "species": "idiopathic pulmonary fibrosis patients"}
{"dose": "60 mg once daily", "setting": "adverse event grade 2", "patients with AST increased [%]": 1}
{"dose": "dose not given", "setting": "grade 1, arms pooled", "patients with AST increased [%]": 2}
{"dose": "60 mg once daily", "setting": "adverse event grade 1", "patients with AST increased [%]": 1}
{"dose": "60 mg once daily", "setting": "adverse event grade 3", "patients with AST increased [%]": 0}
{"dose": "30 mg once daily", "setting": "adverse event grade 3", "patients with AST increased [%]": 0}
{"dose": "60 mg once daily", "setting": "adverse event grade 4", "patients with AST increased [%]": 0}
{"dose": "30 mg once daily", "setting": "adverse event grade 4", "patients with AST increased [%]": 0}
{"note": "Some of these lines once more (set 1):"}
{"target": "Serine/threonine-protein kinase WNK3 (WNK3, Homo sapiens, UniProt Q9BYP7)", "observed": "cell-free assay", "remaining binding [%]": 94}
{"target": "Testis-specific serine/threonine-protein kinase 3 (TSSK3, Homo sapiens, UniProt Q96PN8)", "observed": "cell-free assay", "remaining binding [%]": 81}
{"target": "Tyrosine-protein kinase ABL1, non-phosphorylated (ABL1, Homo sapiens, UniProt P00519, F317L)", "observed": "cell-free assay", "remaining binding [%]": 82}
{"target": "Serine/threonine-protein kinase DCLK3 (DCLK3, Homo sapiens, UniProt Q9C098)", "observed": "cell-free assay", "remaining binding [%]": 100}
